Experimental data of several laboratories.
Lines come from different studies, so protocols differ. Values joined by “and” are separate records of one study, mostly repeats; a detail may differ. ± gives the spread as reported.

SMILES | cell line | assay | conditions | scale | measurement | value
O=C(C[Se]C(=O)c1ccccc1Nc1cccc(C(F)(F)F)c1)Nc1cccc(C(F)(F)F)c1 | NCI60 colon subpanel | NCI60 five-dose screen | – | – | CC50 | 23.4 µM
CC(C)(C)C(=O)OCOP(=O)(OCOC(=O)C(C)(C)C)C1CCCN(O)C1=O (centres unmarked) | HCT-15 | – | – | – | TGI | 14.8 µM
O=C(O)c1ccc(-c2nc(-c3ccccc3Cl)c3sccn23)cc1 | K562 | erythroid differentiation, flow cytometry | 0.01 mM, 48 h | – | CD235a-positive cells | 87.5% and 75.8%
CC(C)[C@H](NC(=O)[C@H](CCCNC(=N)N)NC(=O)[C@@H]1CCCN1C(=O)[C@@H](NC(=O)[C@H](C)NC(=O)[C@H](Cc1ccc(O)cc1)NC(=O)[C@H](CCC(N)=O)NC(=O)[C@H](CCCCN)NC(=O)[C@H](CCCNC(=N)N)NC(=O)[C@@H]1CCCN1C(=O)[C@H](CCC(=O)O)NC(=O)[C@@H](NC(=O)[C@H](C)N)[C@@H](C)O)[C@@H](C)O)C(=O)N[C@@H](Cc1ccccc1)C(=O)N[C@@H](Cc1c[nH]c2ccccc12)C(=O)N[C@H](C(=O)N[C@@H](CC(=O)O)C(=O)N[C@@H](C)C(=O)N1CCC[C@H]1C(=O)NCC(=O)NCCOCCOCCOCCOCCOCCOCCOCCOCCOCCOCCOCCOCCC(=O)N[C@@H](CS)C(N)=O)[C@@H](C)O | H1975 lung adenocarcinoma | cell binding, phage binding, refers to: output/input phage | 10 min, 37 °C | baseline: control phage | selectivity ratio | 0.46 ± 0.14
COc1ccc(NC(=O)c2ccc3[nH]c(-c4ccc(N(C)C)cc4)nc3c2)cn1 | HCT116 | IncuCyte | concentration not given, 4 (unit not given) | – | PI-positive cells | 4.83 count and 3.42 count and 3.92 count
CSCC[C@H](NC(=O)[C@H](CC(C)C)NC(=O)[C@H](CCC(N)=O)NC(=O)[C@H](C)NC(=O)[C@H](Cc1c[nH]c2ccccc12)NC(=O)[C@H](Cc1ccc(O)cc1)NC(=O)[C@H](CCC(=O)O)NC(=O)[C@H](CC(C)C)NC(=O)[C@H](Cc1ccccc1)NC(=O)[C@@H](NC(=O)[C@H](CC(C)C)NC(=O)[C@H](CCCCN)NC(C)=O)[C@@H](C)O)C(=O)N[C@@H](CCC(N)=O)C(=O)N[C@@H](CCCCN)C(=O)NCCCCCC(=O)N[C@@H](CCCCN)C(=O)N[C@@H](CC(C)C)C(=O)N[C@H](C(=O)N[C@@H](Cc1ccccc1)C(=O)N[C@@H](CC(C)C)C(=O)N[C@@]1(C)CCCC=CCCC[C@@](C)(C(=O)N[C@@H](CC(C)C)C(=O)N[C@@H](CCSC)C(=O)N[C@@H](CCC(N)=O)C(=O)N[C@@H](CCCCN)C(N)=O)NC(=O)[C@H](C)NC(=O)[C@H](Cc2c[nH]c3ccccc23)NC(=O)[C@H](Cc2ccc(O)cc2)NC1=O)[C@@H](C)O | U-251 | cell growth, CCK-8 | 16 µM | – | inhibition | inhibited
O=C(C[Se]C(=O)c1ccccc1)Nc1cccc(C(F)(F)F)c1 | NCI60 colon subpanel | cell growth | 10 µM, 48 h, one-dose | – | mean growth percent | -3.5%
COc1ccccc1-c1ccncc1C(=O)Nc1nnc(OCc2ccc(Cl)cc2)s1 | DLD-1 BRCA2-/- | – | 8 µM, mean of 3 replicates | baseline: untreated | colony survival | 8.72%

Excerpt of the above:
SMILES | cell line | assay | conditions | scale | measurement | value
COc1ccc(NC(=O)c2ccc3[nH]c(-c4ccc(N(C)C)cc4)nc3c2)cn1 | HCT116 | IncuCyte | concentration not given, 4 (unit not given) | – | PI-positive cells | 4.83 count and 3.42 count and 3.92 count
